# Published values gathered from unrelated publications.
# Each numbered part is a random draw from the data of one study; scales do not carry over between parts.

# Sample 1 — method: protein-binding microarray; molecule type: double-stranded DNA, one strand shown; medium: in vitro; concentration: 2200 nM top; notes: 60-bp whole probe; together with: salmon DNA 0.4 mg/ml; baseline: random background probes; direction: higher = stronger binding
# Target: Interferon regulatory factor 7, full length, phosphomimetic (IRF7, Homo sapiens, UniProt Q92985, residues 1-503, S471D/S472D/S475D/S476D/S477D/S483D/S484D/S487D)
# Sequence of UniProt Q92985 (whole entry, unmodified, looked up): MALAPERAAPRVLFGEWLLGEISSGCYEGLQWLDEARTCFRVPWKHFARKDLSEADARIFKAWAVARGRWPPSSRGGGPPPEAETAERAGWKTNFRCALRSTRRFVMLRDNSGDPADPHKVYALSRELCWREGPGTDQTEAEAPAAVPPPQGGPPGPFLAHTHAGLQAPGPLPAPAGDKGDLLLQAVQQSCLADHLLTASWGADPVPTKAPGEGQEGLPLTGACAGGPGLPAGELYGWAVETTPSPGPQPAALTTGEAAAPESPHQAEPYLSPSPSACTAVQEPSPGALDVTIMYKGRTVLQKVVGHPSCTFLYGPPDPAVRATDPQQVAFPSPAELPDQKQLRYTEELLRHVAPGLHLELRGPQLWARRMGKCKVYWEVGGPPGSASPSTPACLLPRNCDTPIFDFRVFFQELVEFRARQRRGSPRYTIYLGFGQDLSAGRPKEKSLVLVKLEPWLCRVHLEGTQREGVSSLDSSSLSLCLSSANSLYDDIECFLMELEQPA
Strand,fitted relative affinity
GCCTAGCACTTAGATTTCAGCTCCGATTAGTGCTAGGTCTTGATTCGCTTGACGCTGCTG,0.45 z-score
GCCTAGCACGACGGTATCGGGCTTCGGGACGTGCTAGTCTTGATTCGCTTGACGCTGCTG,-0.447 z-score
GCCTAGCACGACCGACTGCTTTTCCTGACGTGCTAGGTCTTGATTCGCTTGACGCTGCTG,0.926 z-score

# Sample 2 — method: protein binding microarray; molecule type: double-stranded DNA, one strand shown; medium: in vitro; concentration: not given; baseline: not given; direction: higher = stronger binding
# Target: Histone acetyltransferase KAT6A, winged helix 1, GST fusion (KAT6A, Homo sapiens, UniProt Q92794, residues 1-85)
# Notes: 8-mer, flanks averaged, mean of 2 arrays, mostly near background
# Residues (chain): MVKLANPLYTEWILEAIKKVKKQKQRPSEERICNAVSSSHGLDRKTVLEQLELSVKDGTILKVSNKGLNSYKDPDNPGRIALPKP
Strand,E-score
AGAAGTTG,-0.344
AAGAGCTT,-0.16
ATCACATG,0.0624
CTAGCTCA,-0.225

# Further values, each from its own experiment
# TARDBP full length, His tag: TAR DNA-binding protein 43, full length, His tag (TARDBP, Homo sapiens, UniProt Q13148, residues 1-414)
Molecule,target,test,system,conditions,how to read,endpoint,value
CUACCA,"TARDBP full length, His tag",RNA Bind-n-Seq,"RNA, in vitro","20 nM, 6-mer, flanks averaged, single round, together with: 150 mM KCl","baseline: input library, higher = stronger binding",6-mer enrichment (R),0.595
"PhoQ, residues 284 288 289 292 302 303 ASSHFY","PhoP, residues 12 14 15 18 19 NQAHL (Escherichia coli, UniProt P23836)","Sort-seq, refers to: YFP reporter",E. coli,"PhoQ-PhoP variant library, together with: 10 µM Mg2+","baseline: high Mg2+ state, higher = stronger signaling",fold induction,1.8
UGAGGA,"TARDBP full length, His tag",RNA Bind-n-Seq,"RNA, in vitro","20 nM, 6-mer, flanks averaged, single round, together with: 150 mM KCl","baseline: input library, higher = stronger binding",6-mer enrichment (R),1.51
CUAGCA,"TARDBP full length, His tag",RNA Bind-n-Seq,"RNA, in vitro","20 nM, 6-mer, flanks averaged, single round, together with: 150 mM KCl","baseline: input library, higher = stronger binding",6-mer enrichment (R),0.643

# For quick reference, copied from above (sample 1):
Strand,fitted relative affinity
GCCTAGCACGACCGACTGCTTTTCCTGACGTGCTAGGTCTTGATTCGCTTGACGCTGCTG,0.926 z-score
